Measurements pooled from the literature.
Compare with care: the assays were run in different laboratories.

SMILES = NCCONC(=O)[C@@H]1CC[C@@H]2CN1C(=O)N2OS(=O)(=O)O; assay = item: upper respiratory tract infection; test system = healthy Chinese men; setting = intravenous, 1 g, treatment-emergent; adverse event incidence = 25%
SMILES = Cc1c(Cl)c(C)[n+]([O-])c(Cl)c1-c1noc(-c2cc(O)c(O)c([N+](=O)[O-])c2)n1; assay = item: Severe severity; test system = healthy Caucasian subjects; setting = oral, 50 mg, 10 days; adverse event incidence = 0%
SMILES = Cc1ccc(Sc2ccccc2N2CCNCC2)c(C)c1; assay = TEAE Acne; test system = elderly men; setting = oral, 10 mg single dose; adverse event incidence = 12.5%
SMILES = CC(C)n1c(Nc2cccnc2)nc2cnc(Nc3ccc(N4CCN(C)CC4)cc3)nc21; assay = item: Toothache; test system = healthy male subjects; setting = oral, 150 mg, with: rifampin; adverse event incidence = 0%
SMILES = CC(=O)O[C@H]1C(=O)[C@@]2(C)[C@H]([C@H](OC(=O)c3ccccc3)[C@]3(O)C[C@H](OC(=O)[C@H](O)[C@@H](NC(=O)c4ccccc4)c4ccccc4)C(C)=C1C3(C)C)[C@]1(OC(C)=O)CO[C@@H]1C[C@@H]2O; assay = item: peripheral neuropathy; test system = patients with advanced solid tumours; setting = intravenous, dose not given, grade 1 and 2, possibly related to drug; adverse event incidence = 11%
SMILES = C[C@H]1[C@H]2N(C(=O)CN(C)N2C(=O)NCc2ccccc2)[C@@H](Cc2ccc(OP(=O)(O)O)cc2)C(=O)N1Cc1cccc2cccnc12; assay = item: Fever; test system = HIV/HCV haemophilia cirrhosis; setting = concentration not given, phase I trial; adverse event incidence = 60%
SMILES = O=C1CCc2ccc(OCCCCN3CCN(c4cccc(Cl)c4Cl)CC3)cc2N1; assay = item: Hypotension; test system = patients, CYP2D6 normal metabolizers; setting = dose not given, long-acting oral or depot; adverse event incidence = 4.6%
SMILES = CC[C@H](C)CCCCC(=O)N[C@@H](CCN)C(=O)N[C@H](C(=O)N[C@@H](CCN)C(=O)N[C@H]1CCNC(=O)[C@H]([C@@H](C)O)NC(=O)[C@H](CCN)NC(=O)[C@H](CCN)NC(=O)[C@H](CC(C)C)NC(=O)[C@@H](Cc2ccccc2)NC(=O)[C@H](CCN)NC1=O)[C@@H](C)O; assay = item: nervous system disorders; test system = all subjects; setting = intravenous, 0.75 mg/kg; adverse event incidence = 81.8%
SMILES = Cc1c(C(=O)O)ccc2c3n(nc12)[C@@H]1[C@H](C3)N(CC2CC2)[C@@]2(C(=O)Nc3cc(Cl)ccc32)[C@H]1c1cccc(Cl)c1F; assay = phase Ia trial, item: Dizziness; test system = cancer patients; setting = oral, dose not given, all patients all grades; adverse event incidence = 14.8%
SMILES = FC(F)(F)c1ccc(CNc2ccc(Cc3c[nH]c4ncc(Cl)cc34)cn2)cn1; assay = item: Dysgeusia; test system = patients with advanced solid tumours; setting = oral, dose not given, grade 1 and 2, possibly related to drug; adverse event incidence = 26%
SMILES = CCO[C@H]1CCN(Cc2c(OC)cc(C)c3[nH]ccc23)[C@H](c2ccc(C(=O)O)cc2)C1; assay = item: abdominal distension; test system = PNH patients with active haemolysis; setting = oral, 200 mg, extension phase; adverse event incidence = 0%

Some of these lines once more:
SMILES = O=C1CCc2ccc(OCCCCN3CCN(c4cccc(Cl)c4Cl)CC3)cc2N1; assay = item: Hypotension; test system = patients, CYP2D6 normal metabolizers; setting = dose not given, long-acting oral or depot; adverse event incidence = 4.6%
SMILES = CC[C@H](C)CCCCC(=O)N[C@@H](CCN)C(=O)N[C@H](C(=O)N[C@@H](CCN)C(=O)N[C@H]1CCNC(=O)[C@H]([C@@H](C)O)NC(=O)[C@H](CCN)NC(=O)[C@H](CCN)NC(=O)[C@H](CC(C)C)NC(=O)[C@@H](Cc2ccccc2)NC(=O)[C@H](CCN)NC1=O)[C@@H](C)O; assay = item: nervous system disorders; test system = all subjects; setting = intravenous, 0.75 mg/kg; adverse event incidence = 81.8%
